Published values gathered from unrelated publications.
Compare with care: the assays were run in different laboratories. ± gives the spread as reported. ≈ marks a conversion by molar mass, not a printed value.
BCHE: Cholinesterase (BCHE, Homo sapiens, UniProt P06276)
UniProt P06276, sequence (whole entry, looked up): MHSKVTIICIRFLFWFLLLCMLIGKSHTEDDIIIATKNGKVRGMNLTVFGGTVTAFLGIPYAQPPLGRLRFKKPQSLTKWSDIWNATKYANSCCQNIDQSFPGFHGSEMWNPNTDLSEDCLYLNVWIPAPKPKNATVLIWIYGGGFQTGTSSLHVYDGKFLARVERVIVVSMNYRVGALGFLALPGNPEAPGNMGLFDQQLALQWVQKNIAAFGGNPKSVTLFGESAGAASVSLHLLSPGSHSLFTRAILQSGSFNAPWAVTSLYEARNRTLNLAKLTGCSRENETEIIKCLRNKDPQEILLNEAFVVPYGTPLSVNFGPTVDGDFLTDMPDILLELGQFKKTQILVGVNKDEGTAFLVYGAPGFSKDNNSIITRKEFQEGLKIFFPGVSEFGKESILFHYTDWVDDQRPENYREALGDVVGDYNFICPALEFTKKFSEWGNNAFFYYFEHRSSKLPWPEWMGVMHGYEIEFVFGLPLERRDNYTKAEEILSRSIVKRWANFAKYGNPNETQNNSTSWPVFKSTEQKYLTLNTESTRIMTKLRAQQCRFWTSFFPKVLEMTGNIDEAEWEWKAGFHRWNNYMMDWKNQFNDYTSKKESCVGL
UniProt P30411, sequence (whole entry, looked up): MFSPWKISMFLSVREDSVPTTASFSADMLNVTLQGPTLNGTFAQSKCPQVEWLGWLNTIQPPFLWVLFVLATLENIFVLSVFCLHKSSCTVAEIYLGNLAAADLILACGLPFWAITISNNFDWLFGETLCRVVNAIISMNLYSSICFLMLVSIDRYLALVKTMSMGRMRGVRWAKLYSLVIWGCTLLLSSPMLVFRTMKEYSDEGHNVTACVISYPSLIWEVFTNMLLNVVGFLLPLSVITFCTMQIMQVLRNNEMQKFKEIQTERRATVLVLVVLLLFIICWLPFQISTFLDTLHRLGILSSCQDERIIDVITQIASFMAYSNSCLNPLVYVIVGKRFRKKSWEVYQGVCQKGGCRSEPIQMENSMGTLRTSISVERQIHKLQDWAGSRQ
UniProt Q9H7Z7, sequence (whole entry, looked up): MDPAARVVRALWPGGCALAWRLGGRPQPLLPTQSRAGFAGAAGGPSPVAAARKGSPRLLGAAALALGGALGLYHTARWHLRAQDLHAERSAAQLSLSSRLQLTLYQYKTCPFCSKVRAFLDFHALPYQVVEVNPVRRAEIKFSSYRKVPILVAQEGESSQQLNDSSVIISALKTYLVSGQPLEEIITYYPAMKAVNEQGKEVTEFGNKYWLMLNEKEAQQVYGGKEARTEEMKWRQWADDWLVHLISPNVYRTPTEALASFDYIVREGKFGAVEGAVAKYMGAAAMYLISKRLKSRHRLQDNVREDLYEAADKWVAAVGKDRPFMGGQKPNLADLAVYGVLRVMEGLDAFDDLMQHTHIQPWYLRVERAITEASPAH

With `CCC(=O)N1CCN(C(=O)c2ccccc2)CC1` the IC50 was 3.16 µM (Plasmodium falciparum; HB3).
Under “log2 fold change”, `CC[C@H](C)[C@@H]1NC(=O)[C@@H]2CCCN2C(=O)[C@H](CC(C)C)NC(=O)[C@H](CC(C)C)NC(=O)CNC(=O)[C@@H](NC(=O)[C@@H](NC(=O)[C@H](CC(=O)O)NC(=O)CNC(=O)[C@@H](NC(=O)[C@H](C)NC(=O)CNC(=O)[C@H](CCCCN)NC(=O)[C@H](CC(C)C)NC(=O)[C@H](CC(C)C)NC(=O)[C@H](CCCCN)NC(=O)CNC(=O)[C@@H](NC(=O)[C@@H](N)CC(C)C)C(C)C)C(C)C)C(C)C)CSSC[C@@H](C(=O)O)NC1=O` is recorded as -2.6 (RNA-seq, refers to: Rhd mRNA; mouse traumatic brain injury, frontal cortex and hippocampus; dose not given; baseline: TBI plus compound vs TBI).
`CC(C)[C@@H]1NC(=O)[C@@H](CCCN)NC(=O)[C@H]([C@@H](C)O)NC(=O)[C@@H](CCCN)NC(=O)[C@H](Cc2ccccc2)NC(=O)[C@@H](C)NC(=O)[C@@H](C(C)C)NC(=O)[C@@H](C)NC(=O)[C@H](Cc2c[nH]c3ccccc23)NC(=O)[C@@H](Cc2c[nH]c3ccccc23)NC1=O` has an IC90 of over 16 µg/mL (Naegleria fowleri; trophozoites).
With `C#Cc1cccc(C=NNC(=O)c2ccc(Br)c(Br)c2)c1O` the FICI was 2 (Cryptococcus neoformans; H99; unit not given, with: amphotericin B; lower = more synergy).
`C[C@H]1NC(=O)[C@H](Cc2c[nH]c3ccccc23)NC(=O)[C@@H](Cc2ccccc2)NC(=O)[C@@H](CCCN)NC(=O)[C@H]([C@@H](C)O)NC(=O)[C@@H](CCCN)NC(=O)[C@H](Cc2c[nH]c3ccccc23)NC(=O)[C@@H](C)NC1=O` has an IC50 of 11.6 µg/mL (Acanthamoeba castellanii; trophozoites).
With `CC(C)(C)c1cc(C=C(C#N)C#N)cc(C(C)(C)C)c1O` the IC50 was 1.05 µM (Plasmodium falciparum; 7G8).
The control efficacy of `O=C(NC(=O)c1ccccc1Cl)Nc1ccc(Cl)cc1` is reported as 54% (Ostrinia furnacalis; corn seedlings, pot; leaf spray, 100 mg/L, day 7).
With `O=C(Nc1cccc(CN2CCN(C(=O)c3ccccc3)CC2)c1)c1cccs1` the EC50 was 0.302 ± 0.064 µM (Plasmodium falciparum; parasite growth, SYBR Green; 3D7 wild type; 72 h).
`NCCCC[C@H]1NC(=O)[C@H](CO)NC(=O)[C@H](Cc2ccccc2)NC(=O)[C@@H](Cc2ccccc2)NC(=O)[C@H](Cc2c[nH]c3ccccc23)NC(=O)[C@@H](CCCN)NC(=O)[C@H](CCCN)NC1=O` has an IC50 of over 16 µg/mL (Acanthamoeba castellanii; trophozoites).
Under “pathway fold enrichment”, `Nc1ncnc2c1ncn2[C@@H]1O[C@@H]2COP(=O)(O)O[C@H]3[C@@H](O)[C@H](n4cnc5c(=O)[nH]cnc54)O[C@@H]3COP(=O)(O)O[C@H]2[C@H]1O` is recorded as 19.8 (HFF-1; RNA sequencing, refers to: Cell-extracellular matrix interactions; downregulated pathway; baseline: Zika virus alone).
For `CCCCCCCCCC(=O)N[C@@H](Cc1c[nH]c2ccccc12)C(=O)N[C@H](CC(N)=O)C(=O)N[C@@H](CC(=O)O)C(=O)N[C@@H]1C(=O)NCC(=O)N[C@@H](CCCN)C(=O)N[C@@H](CC(=O)O)C(=O)N[C@H](C)C(=O)N[C@@H](CC(=O)O)C(=O)NCC(=O)N[C@H](CO)C(=O)N[C@@H]([C@H](C)CC(=O)O)C(=O)N[C@@H](CC(=O)c2ccccc2N)C(=O)O[C@@H]1C`, the MIC90 was 0.5 µg/mL (≈ 0.309 µM) (Staphylococcus aureus).
`CCCn1c(O)nnc1SCC(=O)Nc1cc(C(F)(F)F)ccc1Cl` has an EC50 of 0.157 ± 0.067 µM (Plasmodium falciparum; parasite growth, SYBR Green; 3D7 wild type; 72 h).
`C[C@@H](O)[C@@H]1NC(=O)[C@H](Cc2ccccc2)NC(=O)[C@@H](Cc2ccccc2)NC(=O)[C@H]([C@@H](C)O)NC(=O)[C@@H](CCCN)NC(=O)[C@H](CCCN)NC(=O)[C@@H](CCCCN)NC1=O` has an IC50 of over 16 µg/mL (Acanthamoeba castellanii; trophozoites).
`COc1ccc(-n2ccnc2SCC(=O)Nc2cc(C)ccc2C)c(OC)c1` has an EC50 of 0.153 ± 0.077 µM (Plasmodium falciparum; parasite growth, SYBR Green; 3D7 wild type; 72 h).
With `COC(=O)N[C@H](C(=O)N1CCC[C@H]1c1ncc(-c2ccc(-c3ccc(-c4cnc([C@@H]5CCCN5C(=O)[C@@H](NC(=O)OC)C(C)C)[nH]4)cc3)cc2)[nH]1)C(C)C` the combination index was 0.47 (Hepatitis C virus; replicon cells; 90% effect level, with: IFN-alpha, ratio 2.5:1).
The mortality of `Cc1cc(Cl)cc(S(C)(=O)=O)c1NC(=O)c1cc(Br)nn1-c1ncccc1Cl` is reported as 100% (Spodoptera litura; leaf-dip; third instar larvae; 12.5 ppm, 96 h).
`CC(C)[C@@H]1NC(=O)[C@@H](CC(N)=O)NC(=O)[C@H](Cc2ccccc2)NC(=O)[C@@H](CCCN)NC(=O)[C@H](CCCN)NC(=O)[C@H]([C@@H](C)O)NC(=O)[C@@H](C(C)C)NC(=O)[C@H](C(C)C)NC(=O)[C@@H]([C@H](C)O)NC(=O)[C@@H](C(C)C)NC1=O` gave an IC90 of over 16 µg/mL (Acanthamoeba castellanii; trophozoites).
`CC[C@H](C)[C@H](NC(=O)[C@H](C)NC(=O)[C@H](CCCCN)NC(=O)[C@H](CC(C)C)NC(=O)[C@H](C)NC(=O)[C@@H](NC(=O)[C@H](Cc1c[nH]cn1)NC(=O)[C@H](CC(C)C)NC(=O)[C@@H](NC(=O)[C@@H](NC(=O)[C@H](CCCCN)NC(=O)[C@H](C)NC(=O)[C@H](C)NC(=O)[C@H](CO)NC(=O)[C@H](CCCCN)NC(=O)[C@H](Cc1ccccc1)NC(=O)[C@@H](NC(=O)[C@H](CCCCN)NC(=O)[C@H](CC(C)C)NC(=O)[C@H](Cc1ccccc1)NC(=O)[C@H](CO)NC(=O)[C@H](CCCCN)NC(=O)[C@H](Cc1c[nH]c2ccccc12)NC(=O)[C@H](CCCCN)NC(C)=O)[C@@H](C)O)[C@@H](C)O)C(C)C)[C@@H](C)O)C(=O)N[C@@H](CO)C(=O)N[C@@H](CO)C(N)=O`: “MIC geometric mean” 16 µg/mL (≈ 5.45 µM) (Streptococcus pyogenes; ATCC 13813; 1 strain).
`Cc1ccc(NC(=O)c2cc(S(=O)(=O)NC(C)(C)C)ccc2C)nc1` gave an EC50 ratio of 12 (Plasmodium falciparum; parasite growth, SYBR Green; 72 h; baseline: 3D7-E182D over 3D7).
For `O=C1NCc2c1c1c3ccccc3[nH]c1c1[nH]c3ccccc3c21`, the IC50 was 23.6 ± 9.34 µM (BCHE; inhibitor; with Triton).
`CC(=O)c1c(Nc2c(C)cc(C)cc2C)oc(C)cc1=O` has an EC50 of 1.25 ± 0.27 µM (Plasmodium falciparum; parasite growth, SYBR Green; 3D7 DHODH E182D; 72 h).
`C[C@H]1CN(c2n[nH]c3nc(N[C@H]4CC[C@H](NS(=O)(=O)CCC(F)(F)F)CC4)ncc23)CCO1` has an IC50 of at least 20 µM (Prostaglandin E synthase 2 (Homo sapiens, UniProt Q9H7Z7); biochemical).
`C[C@]12C=CC(=O)C=C1CC[C@@H]1C2=CC[C@]2(C)[C@@H](C(=O)CN3CCN(c4cc(N5CCCC5)nc(N5CCCC5)n4)CC3)CC[C@@H]12` gave an IC50 of 1.26 µM (Plasmodium falciparum; GB4).
`Cc1cc(Nc2ccc(C(C)(C)C)cc2)c2[nH]ncc2n1.Cl` gave an EC50 ratio of 4.1 (Plasmodium falciparum; parasite growth, SYBR Green; 72 h; baseline: 3D7-E182D over 3D7).
`C[C@@H](O)[C@@H]1NC(=O)[C@@H](CCCCN)NC(=O)[C@H](CCCN)NC(=O)[C@@H](CCCN)NC(=O)[C@H](CO)NC(=O)[C@H](Cc2c[nH]c3ccccc23)NC(=O)[C@@H](Cc2c[nH]c3ccccc23)NC1=O` has an IC50 of over 16 µg/mL (Naegleria fowleri; trophozoites).
With `COC(=O)[C@@H]1[C@H]2C[C@H]3c4[nH]c5ccccc5c4CCN3C[C@@H]2CC[C@@H]1O` the IC50 was 2 µM (Plasmodium falciparum; 7G8).
The LC50 of `COc1c(CCC[P+](c2ccccc2)(c2ccccc2)c2ccccc2)cc2c(c1OC)OCO2.[I-]` is reported as over -4 log M (SR; SRB).
With `CC12CC3CC(C)(C1)CC(N)(C3)C2` the IC50 was 7.94 µM (Plasmodium falciparum; Dd2).
For `CN(C(=O)n1cnc(-c2ccc[n+]([O-])c2)c1)C1CCCCC1`, the inhibition was 2% (B2 bradykinin receptor (BDKRB2, Homo sapiens, UniProt P30411); radioligand binding; 10 µM, with: [3H]bradykinin).
`CCCC1O[C@@H]2C[C@H]3[C@@H]4CCC5=CC(=O)C=C[C@]5(C)[C@H]4[C@@H](O)C[C@]3(C)[C@]2(C(=O)CO)O1` (stereo partly shown) has an IC50 of 3.16 µM (Plasmodium falciparum; 3D7).
With `Cc1noc(-c2cccs2)c1C(=O)NCCc1cccc(Cl)c1` the EC50 was 2.09 ± 0.56 µM (Plasmodium falciparum; parasite growth).
`CC(C)[C@@H]1NC(=O)[C@@H](CCCNC(=N)N)NC(=O)[C@H]([C@@H](C)O)NC(=O)[C@@H](CCCNC(=N)N)NC(=O)[C@H](Cc2ccccc2)NC(=O)[C@@H](Cc2ccccc2)NC1=O` gave an IC90 of over 16 µg/mL (Naegleria fowleri; trophozoites).
`C=CCc1ccccc1OCC(O)CNC(C)C` (stereo not shown) gave an IC50 of 10 µM (Plasmodium falciparum; Dd2).
With `CC(C)[C@@H]1NC(=O)[C@@H](CCCCN)NC(=O)[C@H](CCCCN)NC(=O)[C@@H](CCCN)NC(=O)[C@H](C)NC(=O)[C@H](Cc2c[nH]c3ccccc23)NC(=O)[C@@H](Cc2ccccc2)NC1=O` the IC50 was 13.6 µg/mL (Acanthamoeba castellanii; trophozoites).
For `CN[C@@H](C)[C@H]1[C@H](O)C[C@@]2(C)[C@@H]3CC[C@H]4C(C)(C)[C@@H](NC)CC[C@@]45C[C@@]35CC[C@]12C`, the IC50 was 5.09 ± 2.75 µM (BCHE; inhibitor, fluorometric).
`CNC(=O)c1cc(Cl)cc(C)c1NC(=O)c1cc(Br)nn1-c1ncccc1Cl` gave a larval survival of 21.6% (Spodoptera litura; Brassica oleracea field; 25 ppm, 168 h, 5% water-dispersible granule).
`COc1cc(CCC[P+](c2ccccc2)(c2ccccc2)c2ccccc2)c(OC)c2c1OCO2.[I-]` gave an LC50 of -4.66 log M (SNB-75; SRB).
For `CS(=O)(=O)CCCn1c(Cn2c(=O)n(CC(F)(F)F)c3ccncc32)cc2cc(Cl)ccc21`, “LS mean difference vs placebo” read -0.11 log10 copies/mL (respiratory syncytial virus; RT-qPCR; hospitalized infants 1-24 months, nasal swab; oral, 2, 1.5 or 1 mg/kg daily, day 7, low dose by age cohort; baseline: placebo).
For `CCNC(=O)N1CCN(CCCC(c2ccc(F)cc2)c2ccc(F)cc2)CC1`, the IC50 was 0.316 µM (Plasmodium falciparum; W2).
`CCNC(=O)c1ccc(-n2nc(C)cc2-c2ccccc2)cc1` has an EC50 ratio of 3 (Plasmodium falciparum; parasite growth, SYBR Green; 72 h; baseline: 3D7-E182D over 3D7).

For quick reference, copied from above:
With `CCC(=O)N1CCN(C(=O)c2ccccc2)CC1` the IC50 was 3.16 µM (Plasmodium falciparum; HB3).
Under “log2 fold change”, `CC[C@H](C)[C@@H]1NC(=O)[C@@H]2CCCN2C(=O)[C@H](CC(C)C)NC(=O)[C@H](CC(C)C)NC(=O)CNC(=O)[C@@H](NC(=O)[C@@H](NC(=O)[C@H](CC(=O)O)NC(=O)CNC(=O)[C@@H](NC(=O)[C@H](C)NC(=O)CNC(=O)[C@H](CCCCN)NC(=O)[C@H](CC(C)C)NC(=O)[C@H](CC(C)C)NC(=O)[C@H](CCCCN)NC(=O)CNC(=O)[C@@H](NC(=O)[C@@H](N)CC(C)C)C(C)C)C(C)C)C(C)C)CSSC[C@@H](C(=O)O)NC1=O` is recorded as -2.6 (RNA-seq, refers to: Rhd mRNA; mouse traumatic brain injury, frontal cortex and hippocampus; dose not given; baseline: TBI plus compound vs TBI).
`CC(C)[C@@H]1NC(=O)[C@@H](CCCN)NC(=O)[C@H]([C@@H](C)O)NC(=O)[C@@H](CCCN)NC(=O)[C@H](Cc2ccccc2)NC(=O)[C@@H](C)NC(=O)[C@@H](C(C)C)NC(=O)[C@@H](C)NC(=O)[C@H](Cc2c[nH]c3ccccc23)NC(=O)[C@@H](Cc2c[nH]c3ccccc23)NC1=O` has an IC90 of over 16 µg/mL (Naegleria fowleri; trophozoites).
With `C#Cc1cccc(C=NNC(=O)c2ccc(Br)c(Br)c2)c1O` the FICI was 2 (Cryptococcus neoformans; H99; unit not given, with: amphotericin B; lower = more synergy).
`C[C@H]1NC(=O)[C@H](Cc2c[nH]c3ccccc23)NC(=O)[C@@H](Cc2ccccc2)NC(=O)[C@@H](CCCN)NC(=O)[C@H]([C@@H](C)O)NC(=O)[C@@H](CCCN)NC(=O)[C@H](Cc2c[nH]c3ccccc23)NC(=O)[C@@H](C)NC1=O` has an IC50 of 11.6 µg/mL (Acanthamoeba castellanii; trophozoites).
